# Published values collected from several papers.
# Every numbered part comes from another study and shows a few of its results, in no order. Several values in a cell are separate wells, animals, samples, runs or records.
# Chain of UniProt Q96J92 (whole entry, looked up): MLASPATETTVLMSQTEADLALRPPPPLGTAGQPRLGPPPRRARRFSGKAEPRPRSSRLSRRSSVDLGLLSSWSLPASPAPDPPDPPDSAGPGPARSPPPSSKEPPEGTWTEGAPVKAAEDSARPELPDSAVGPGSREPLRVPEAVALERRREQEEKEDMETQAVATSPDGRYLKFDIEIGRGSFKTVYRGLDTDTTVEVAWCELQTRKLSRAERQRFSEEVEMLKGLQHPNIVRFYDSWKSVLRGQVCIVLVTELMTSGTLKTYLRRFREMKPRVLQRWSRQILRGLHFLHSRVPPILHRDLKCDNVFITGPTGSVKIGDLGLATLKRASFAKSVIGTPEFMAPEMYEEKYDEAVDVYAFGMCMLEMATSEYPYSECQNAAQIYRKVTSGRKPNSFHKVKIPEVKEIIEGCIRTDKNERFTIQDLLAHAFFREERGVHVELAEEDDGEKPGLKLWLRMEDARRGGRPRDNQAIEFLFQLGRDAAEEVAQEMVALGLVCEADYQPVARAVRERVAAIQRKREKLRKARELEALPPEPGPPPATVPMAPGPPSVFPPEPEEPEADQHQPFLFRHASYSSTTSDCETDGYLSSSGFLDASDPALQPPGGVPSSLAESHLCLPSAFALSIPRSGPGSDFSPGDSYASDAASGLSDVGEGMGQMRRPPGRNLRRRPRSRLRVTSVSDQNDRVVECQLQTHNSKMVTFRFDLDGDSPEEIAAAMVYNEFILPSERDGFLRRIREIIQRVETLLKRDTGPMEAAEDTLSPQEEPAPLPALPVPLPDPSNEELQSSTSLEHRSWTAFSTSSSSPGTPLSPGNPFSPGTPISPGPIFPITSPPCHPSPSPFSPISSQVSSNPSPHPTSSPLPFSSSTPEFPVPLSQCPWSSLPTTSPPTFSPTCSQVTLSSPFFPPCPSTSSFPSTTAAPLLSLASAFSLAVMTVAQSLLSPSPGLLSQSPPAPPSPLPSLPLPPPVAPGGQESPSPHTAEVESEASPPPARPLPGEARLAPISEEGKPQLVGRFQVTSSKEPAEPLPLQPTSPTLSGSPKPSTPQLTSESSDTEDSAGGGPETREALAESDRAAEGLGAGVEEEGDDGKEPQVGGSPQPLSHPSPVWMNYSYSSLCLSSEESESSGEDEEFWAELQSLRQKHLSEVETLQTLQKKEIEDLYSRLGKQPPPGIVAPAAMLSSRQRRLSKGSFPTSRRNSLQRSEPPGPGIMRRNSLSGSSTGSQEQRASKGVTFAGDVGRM
# Chain of UniProt Q9NRP7 (whole entry, looked up): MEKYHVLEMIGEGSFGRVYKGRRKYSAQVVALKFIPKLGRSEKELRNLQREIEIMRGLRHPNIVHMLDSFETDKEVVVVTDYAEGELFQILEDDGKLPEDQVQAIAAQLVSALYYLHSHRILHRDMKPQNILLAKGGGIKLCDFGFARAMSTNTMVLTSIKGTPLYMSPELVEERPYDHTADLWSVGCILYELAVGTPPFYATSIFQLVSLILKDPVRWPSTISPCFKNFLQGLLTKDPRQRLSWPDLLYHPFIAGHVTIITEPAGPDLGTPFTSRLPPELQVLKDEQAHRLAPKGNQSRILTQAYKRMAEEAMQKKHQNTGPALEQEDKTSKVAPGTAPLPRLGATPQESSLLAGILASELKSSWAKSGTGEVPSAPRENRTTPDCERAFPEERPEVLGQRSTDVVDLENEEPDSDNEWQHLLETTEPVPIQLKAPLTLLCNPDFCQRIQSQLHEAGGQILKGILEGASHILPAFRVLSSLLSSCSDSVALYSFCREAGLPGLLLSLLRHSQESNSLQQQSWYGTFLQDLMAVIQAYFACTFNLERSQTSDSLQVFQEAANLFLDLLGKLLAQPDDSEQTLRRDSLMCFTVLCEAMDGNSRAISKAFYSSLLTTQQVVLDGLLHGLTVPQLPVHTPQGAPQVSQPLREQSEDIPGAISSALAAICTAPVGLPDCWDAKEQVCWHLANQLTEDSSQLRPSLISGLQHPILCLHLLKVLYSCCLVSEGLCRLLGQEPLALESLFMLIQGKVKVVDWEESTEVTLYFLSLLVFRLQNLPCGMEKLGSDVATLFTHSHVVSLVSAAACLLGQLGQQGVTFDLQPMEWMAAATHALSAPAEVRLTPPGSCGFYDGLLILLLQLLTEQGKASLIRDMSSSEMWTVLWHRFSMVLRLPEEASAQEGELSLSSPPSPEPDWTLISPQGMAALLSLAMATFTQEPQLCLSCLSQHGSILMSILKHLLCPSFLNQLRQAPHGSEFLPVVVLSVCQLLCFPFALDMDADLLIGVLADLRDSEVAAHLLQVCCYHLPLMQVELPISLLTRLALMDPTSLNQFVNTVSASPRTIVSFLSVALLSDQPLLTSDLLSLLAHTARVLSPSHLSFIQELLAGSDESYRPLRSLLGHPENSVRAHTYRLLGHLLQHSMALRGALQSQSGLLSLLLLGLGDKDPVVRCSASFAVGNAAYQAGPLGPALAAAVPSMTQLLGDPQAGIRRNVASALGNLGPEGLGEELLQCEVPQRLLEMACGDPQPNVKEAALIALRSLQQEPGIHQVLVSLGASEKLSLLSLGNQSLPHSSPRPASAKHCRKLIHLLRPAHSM
# Chain of UniProt P49760 (whole entry, looked up): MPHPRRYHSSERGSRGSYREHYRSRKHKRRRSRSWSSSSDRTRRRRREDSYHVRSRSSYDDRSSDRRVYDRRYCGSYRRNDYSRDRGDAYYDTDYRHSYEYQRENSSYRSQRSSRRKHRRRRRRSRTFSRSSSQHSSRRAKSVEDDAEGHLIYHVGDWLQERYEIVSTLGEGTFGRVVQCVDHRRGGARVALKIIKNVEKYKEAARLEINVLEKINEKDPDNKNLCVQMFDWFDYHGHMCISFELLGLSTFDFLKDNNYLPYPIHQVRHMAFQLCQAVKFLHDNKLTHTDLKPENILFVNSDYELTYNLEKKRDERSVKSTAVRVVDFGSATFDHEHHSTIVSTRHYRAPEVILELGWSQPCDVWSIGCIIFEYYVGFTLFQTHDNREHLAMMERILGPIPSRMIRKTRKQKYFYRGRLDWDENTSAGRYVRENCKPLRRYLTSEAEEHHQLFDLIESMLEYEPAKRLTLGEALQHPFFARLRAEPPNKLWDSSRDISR
# Chain of UniProt O15530 (whole entry, looked up): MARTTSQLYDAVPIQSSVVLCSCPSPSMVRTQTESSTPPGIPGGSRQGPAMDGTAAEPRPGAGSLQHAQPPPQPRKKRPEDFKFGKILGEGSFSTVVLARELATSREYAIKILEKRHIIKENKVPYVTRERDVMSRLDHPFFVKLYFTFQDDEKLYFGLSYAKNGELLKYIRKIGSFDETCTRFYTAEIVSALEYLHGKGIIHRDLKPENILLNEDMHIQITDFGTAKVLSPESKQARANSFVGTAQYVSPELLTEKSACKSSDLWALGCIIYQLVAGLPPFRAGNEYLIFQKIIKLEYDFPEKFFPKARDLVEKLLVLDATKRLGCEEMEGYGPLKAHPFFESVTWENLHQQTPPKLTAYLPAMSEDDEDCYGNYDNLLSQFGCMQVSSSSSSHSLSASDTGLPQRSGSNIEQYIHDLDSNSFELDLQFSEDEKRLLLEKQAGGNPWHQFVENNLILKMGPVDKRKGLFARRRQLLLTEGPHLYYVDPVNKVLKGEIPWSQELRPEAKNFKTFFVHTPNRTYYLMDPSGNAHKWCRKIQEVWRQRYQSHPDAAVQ

# Sample 1
# SMILES: Cc1ccc(O)c(C)c1-c1cnc2[nH]c(-c3cnc(N)nc3)cc2c1C#N
# PKMYT1: Membrane-associated tyrosine- and threonine-specific cdc2-inhibitory kinase (PKMYT1, Homo sapiens, UniProt Q99640)
# Chain of UniProt Q99640 (whole entry, looked up): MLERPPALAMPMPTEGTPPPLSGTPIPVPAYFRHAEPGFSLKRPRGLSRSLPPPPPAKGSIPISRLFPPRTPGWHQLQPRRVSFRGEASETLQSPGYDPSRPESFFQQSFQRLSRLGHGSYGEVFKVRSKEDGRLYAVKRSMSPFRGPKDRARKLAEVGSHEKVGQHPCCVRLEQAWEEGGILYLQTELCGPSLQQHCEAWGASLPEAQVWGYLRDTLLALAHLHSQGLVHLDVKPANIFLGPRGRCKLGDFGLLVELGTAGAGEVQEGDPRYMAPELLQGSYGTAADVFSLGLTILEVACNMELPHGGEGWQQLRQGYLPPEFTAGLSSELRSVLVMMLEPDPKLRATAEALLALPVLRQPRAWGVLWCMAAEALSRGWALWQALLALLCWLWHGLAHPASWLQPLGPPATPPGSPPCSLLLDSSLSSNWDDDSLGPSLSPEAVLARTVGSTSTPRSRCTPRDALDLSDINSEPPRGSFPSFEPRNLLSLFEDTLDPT
tested on,assay,conditions,inhibition
PKMYT1,,5.1e-05 µM,-1.39% and -3.07%
KLE,cell proliferation,370.37 nM,27.6%
PKMYT1,"cell-free assay, TR-FRET",4.12 nM,68.1%
PKMYT1,"cell-free assay, TR-FRET",0.3333 µM,101%
HCC1806,cell proliferation,1.524 nM,-1.46%
PKMYT1,,1 µM,99.8%
PKMYT1,"cell-free assay, TR-FRET",37.04 nM,98.3%
MKN-1,cell proliferation,4.572 nM,-2.3%
HuCCT-1,cell proliferation,30000 nM,99.1%
HCC1569,"automated capillary immunoblot, refers to: CDK1 phospho-Thr14",37.04 nM,43.4%
HCC1569,"automated capillary immunoblot, refers to: CDK1 phospho-Thr14",333.33 nM,64.1%
PKMYT1,"enzyme activity, inhibitor",4.12 nM,87%
PKMYT1,"enzyme activity, inhibitor",460 pM,13.1%
HuCCT-1,cell proliferation,4.57 nM,-0.94%
MKN-1,cell proliferation,1.524 nM,-2.27%
MKN-1,cell proliferation,1111.11 nM,87.9%
U-251 MG,cell growth,10000 nM,77.4%
HCC1569,cell proliferation,41.15 nM,4.56%

# Sample 2
# Structure (SMILES): CC[C@@]1(c2ccccc2)C2=C(CC(C)(C)CC2=O)Nc2n[nH]cc21
# Concentration: 1 µM
target,assay,how to read,remaining binding [%]
"TYRO3 (Homo sapiens, UniProt Q06418)","binding, competition with immobilised ligand",,100
"Receptor-type tyrosine-protein kinase FLT3, autoinhibited (FLT3, Homo sapiens, UniProt P36888)","binding, competition with immobilised ligand",,100
"STK32C (Homo sapiens, UniProt Q86UX6)","kinase binding, KINOMEscan",reference: DMSO control,100
"PNCK (Homo sapiens, UniProt Q6P2M8)","binding, competition with immobilised ligand",,100
"SLK (Homo sapiens, UniProt Q9H2G2)","kinase binding, KINOMEscan",reference: DMSO control,100
"PDPK1 (Homo sapiens, UniProt O15530)","binding, competition with immobilised ligand",,100
"CRK2 (Plasmodium falciparum, UniProt P61075)","kinase binding, KINOMEscan",reference: DMSO control,100
"NEK6 (Homo sapiens, UniProt Q9HC98)","kinase binding, KINOMEscan",reference: DMSO control,95
"STK36 (Homo sapiens, UniProt Q9NRP7)","binding, competition with immobilised ligand",,100
"STK25 (Homo sapiens, UniProt O00506)","binding, competition with immobilised ligand",,83
"CSNK2A2 (Homo sapiens, UniProt P19784)","binding, competition with immobilised ligand",,100
"ERBB2 (Homo sapiens, UniProt P04626)","binding, competition with immobilised ligand",,91
"CAMK1D (Homo sapiens, UniProt Q8IU85)","kinase binding, KINOMEscan",reference: DMSO control,100
"WNK3 (Homo sapiens, UniProt Q9BYP7)","binding, competition with immobilised ligand",,100
"FLT3 ITD/F691L, human",KINOMEscan,,92
"GRK4 (Homo sapiens, UniProt P32298)","binding, competition with immobilised ligand",,99
"JAK3 (Homo sapiens, UniProt P52333)","kinase binding, KINOMEscan",reference: DMSO control,100
"PIK3CA (Homo sapiens, UniProt P42336, Q546K)","binding, competition with immobilised ligand",,86
"CDC42BPG (Homo sapiens, UniProt Q6DT37)",KINOMEscan,,94
"Tyrosine-protein kinase ABL1, phosphorylated (ABL1, Homo sapiens, UniProt P00519)","kinase binding, KINOMEscan",reference: DMSO control,80
"WNK4 (Homo sapiens, UniProt Q96J92)","kinase binding, KINOMEscan",reference: DMSO control,83
"HIPK1 (Homo sapiens, UniProt Q86Z02)","kinase binding, KINOMEscan",reference: DMSO control,77
"CLK2 (Homo sapiens, UniProt P49760)","binding, competition with immobilised ligand",,100

# Sample 3
# SMILES: Cc1ncsc1-c1ccc(C(CO)NC(=O)C2CC(O)CN2C(=O)C(C(C)C)n2cc(-c3ccc(COc4c(-c5c(C)c(F)cc6[nH]ncc56)c(C5CC5)cc5c(N6CC7CC6CN7)nc(OC6CCOCC6)nc45)cc3)nn2)cc1 (stereo not shown)
# Effect on: cell growth or viability
# Method: ATP luminescence
# Time: 6 days
cell line,conditions,viability
COLO 320,10 nM,102% and 83.2% and 81.7% and 88.9%
GP2d,3 nM,64.8% and 49.7% and 50% and 44.1%
HCT-116,1 µM,13.2% and 10% and 11.9% and 12.5%
ASPC1,3 nM,87.5% and 80.7% and 93.7% and 66.4%
ASPC1,0.3 µM,9.75% and 9.31% and 8.71% and 11.1%
PK-59,300 pM,98.9% and 97.8% and 112% and 105%
SK-CO-1,0.3 µM,29.2% and 27.8% and 27.3% and 24.5%

# Other studies, line by line
# Organism: Arabidopsis thaliana
Structure (SMILES),test system,conditions,quantity,result
CCN1C(=O)C(O)(C(=O)O)Oc2cc(F)ccc21 (stereo not shown),Col-0,"3.125 µg/mL, seed germination, single repetition",hypocotyl length,2.35 cm and 2.21 cm and 2.26 cm and 2.12 cm and 2.11 cm
O=C(O)C1(O)Oc2cc(F)ccc2N(Cc2ccccc2)C1=O (stereo not shown),"2-week-old plants, aboveground tissue","foliar spray, 200 µg/mL, 20 days, postemergence",fresh weight,207 mg and 216 mg and 219 mg
CCCN1C(=O)C(O)(C(=O)O)Oc2cc(F)ccc21 (stereo not shown),"2-week-old plants, aboveground tissue","foliar spray, 200 µg/mL, 20 days, postemergence",fresh weight,416 mg and 410 mg and 403 mg
CC(C)=CCN1C(=O)C(O)(C(=O)O)Oc2cc(F)ccc21 (stereo not shown),Col-0,"100 µg/mL, seed germination, single repetition",hypocotyl length,1.42 cm and 1.4 cm and 1.43 cm and 1.48 cm

# Excerpt of the above (sample 3):
cell line,conditions,viability
SK-CO-1,0.3 µM,29.2% and 27.8% and 27.3% and 24.5%
ASPC1,0.3 µM,9.75% and 9.31% and 8.71% and 11.1%
COLO 320,10 nM,102% and 83.2% and 81.7% and 88.9%
GP2d,3 nM,64.8% and 49.7% and 50% and 44.1%
PK-59,300 pM,98.9% and 97.8% and 112% and 105%
ASPC1,3 nM,87.5% and 80.7% and 93.7% and 66.4%
